Published values from different studies.
A part holds a random share of what one study measured. Several values in a cell are separate wells, animals, samples, runs or records.
UniProt Q92772, sequence (whole entry, looked up): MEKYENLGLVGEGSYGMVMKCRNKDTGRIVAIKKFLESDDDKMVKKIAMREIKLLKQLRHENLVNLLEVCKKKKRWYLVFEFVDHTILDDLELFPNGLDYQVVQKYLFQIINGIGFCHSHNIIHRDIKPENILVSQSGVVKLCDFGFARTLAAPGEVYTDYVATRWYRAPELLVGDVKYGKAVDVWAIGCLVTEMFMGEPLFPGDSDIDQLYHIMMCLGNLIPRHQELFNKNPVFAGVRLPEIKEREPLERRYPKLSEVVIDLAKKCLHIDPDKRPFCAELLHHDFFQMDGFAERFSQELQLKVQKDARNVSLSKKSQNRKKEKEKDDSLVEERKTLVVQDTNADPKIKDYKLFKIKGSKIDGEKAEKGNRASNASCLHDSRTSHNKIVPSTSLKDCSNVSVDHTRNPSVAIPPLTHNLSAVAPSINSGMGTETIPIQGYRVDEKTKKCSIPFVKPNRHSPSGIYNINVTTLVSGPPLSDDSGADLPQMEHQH
UniProt P11362, sequence (whole entry, looked up): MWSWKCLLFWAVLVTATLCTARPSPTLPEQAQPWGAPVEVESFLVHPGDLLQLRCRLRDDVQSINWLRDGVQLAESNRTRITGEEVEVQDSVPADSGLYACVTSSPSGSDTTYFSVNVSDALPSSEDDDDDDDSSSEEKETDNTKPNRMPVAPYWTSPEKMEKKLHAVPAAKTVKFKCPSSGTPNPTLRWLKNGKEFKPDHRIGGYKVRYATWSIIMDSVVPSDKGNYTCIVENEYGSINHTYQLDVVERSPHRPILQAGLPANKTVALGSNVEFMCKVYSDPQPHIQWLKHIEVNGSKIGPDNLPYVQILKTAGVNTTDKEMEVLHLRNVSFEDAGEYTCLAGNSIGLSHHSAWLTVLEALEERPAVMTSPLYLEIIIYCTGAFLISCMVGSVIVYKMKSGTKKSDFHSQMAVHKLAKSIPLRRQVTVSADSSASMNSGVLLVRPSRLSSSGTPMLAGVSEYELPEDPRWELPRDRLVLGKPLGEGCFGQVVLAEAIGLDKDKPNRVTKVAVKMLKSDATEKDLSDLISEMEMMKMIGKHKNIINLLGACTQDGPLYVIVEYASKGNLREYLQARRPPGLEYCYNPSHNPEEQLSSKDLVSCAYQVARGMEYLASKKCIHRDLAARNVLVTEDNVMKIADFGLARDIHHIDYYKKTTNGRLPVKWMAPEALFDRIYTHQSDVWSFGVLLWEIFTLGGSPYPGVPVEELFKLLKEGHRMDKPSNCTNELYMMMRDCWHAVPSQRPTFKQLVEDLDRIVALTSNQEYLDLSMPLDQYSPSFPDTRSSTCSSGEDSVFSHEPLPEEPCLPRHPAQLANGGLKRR
UniProt Q13163, sequence (whole entry, looked up): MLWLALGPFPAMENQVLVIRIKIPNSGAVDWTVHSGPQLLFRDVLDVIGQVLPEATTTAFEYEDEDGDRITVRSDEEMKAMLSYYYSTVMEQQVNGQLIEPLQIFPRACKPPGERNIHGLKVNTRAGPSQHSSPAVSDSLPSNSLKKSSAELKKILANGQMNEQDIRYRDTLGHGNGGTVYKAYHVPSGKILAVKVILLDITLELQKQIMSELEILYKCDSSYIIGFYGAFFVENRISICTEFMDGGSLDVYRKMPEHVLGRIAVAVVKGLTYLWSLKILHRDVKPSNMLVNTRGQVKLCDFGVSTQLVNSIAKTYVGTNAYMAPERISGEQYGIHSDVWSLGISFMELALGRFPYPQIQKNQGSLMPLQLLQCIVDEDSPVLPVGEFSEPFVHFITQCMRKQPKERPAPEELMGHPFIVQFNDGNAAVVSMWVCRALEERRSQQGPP
UniProt O75582, sequence (whole entry, looked up): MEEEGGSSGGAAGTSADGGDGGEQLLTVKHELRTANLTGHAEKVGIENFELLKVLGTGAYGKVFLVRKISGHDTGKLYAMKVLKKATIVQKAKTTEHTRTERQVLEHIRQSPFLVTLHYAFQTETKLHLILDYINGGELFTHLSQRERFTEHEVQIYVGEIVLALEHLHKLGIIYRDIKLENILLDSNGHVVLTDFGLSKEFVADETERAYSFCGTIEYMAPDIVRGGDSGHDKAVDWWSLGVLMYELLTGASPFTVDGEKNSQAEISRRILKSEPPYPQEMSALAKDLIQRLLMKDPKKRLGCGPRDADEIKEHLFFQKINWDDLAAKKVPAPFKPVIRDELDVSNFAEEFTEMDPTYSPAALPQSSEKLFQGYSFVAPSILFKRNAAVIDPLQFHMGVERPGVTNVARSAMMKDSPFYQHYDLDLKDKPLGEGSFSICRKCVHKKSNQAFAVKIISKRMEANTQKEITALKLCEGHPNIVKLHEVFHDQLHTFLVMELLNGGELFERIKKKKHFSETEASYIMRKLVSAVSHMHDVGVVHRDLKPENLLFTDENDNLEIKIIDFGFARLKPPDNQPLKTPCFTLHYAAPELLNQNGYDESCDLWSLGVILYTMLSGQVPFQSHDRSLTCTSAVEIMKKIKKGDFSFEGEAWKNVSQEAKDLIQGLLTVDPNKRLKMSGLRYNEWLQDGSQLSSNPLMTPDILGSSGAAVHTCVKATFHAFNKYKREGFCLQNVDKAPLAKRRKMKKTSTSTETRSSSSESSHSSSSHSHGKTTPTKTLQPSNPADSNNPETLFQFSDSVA
UniProt P50613, sequence (whole entry, looked up): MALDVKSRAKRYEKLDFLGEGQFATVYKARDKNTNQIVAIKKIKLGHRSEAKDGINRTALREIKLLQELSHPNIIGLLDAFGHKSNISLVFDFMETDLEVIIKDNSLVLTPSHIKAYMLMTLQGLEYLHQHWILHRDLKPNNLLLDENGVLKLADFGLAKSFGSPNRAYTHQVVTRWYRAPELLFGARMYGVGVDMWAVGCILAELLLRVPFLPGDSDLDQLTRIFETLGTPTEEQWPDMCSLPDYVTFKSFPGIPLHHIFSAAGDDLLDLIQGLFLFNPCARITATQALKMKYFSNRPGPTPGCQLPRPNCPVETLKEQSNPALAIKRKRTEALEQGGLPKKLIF
UniProt Q07002, sequence (whole entry, looked up): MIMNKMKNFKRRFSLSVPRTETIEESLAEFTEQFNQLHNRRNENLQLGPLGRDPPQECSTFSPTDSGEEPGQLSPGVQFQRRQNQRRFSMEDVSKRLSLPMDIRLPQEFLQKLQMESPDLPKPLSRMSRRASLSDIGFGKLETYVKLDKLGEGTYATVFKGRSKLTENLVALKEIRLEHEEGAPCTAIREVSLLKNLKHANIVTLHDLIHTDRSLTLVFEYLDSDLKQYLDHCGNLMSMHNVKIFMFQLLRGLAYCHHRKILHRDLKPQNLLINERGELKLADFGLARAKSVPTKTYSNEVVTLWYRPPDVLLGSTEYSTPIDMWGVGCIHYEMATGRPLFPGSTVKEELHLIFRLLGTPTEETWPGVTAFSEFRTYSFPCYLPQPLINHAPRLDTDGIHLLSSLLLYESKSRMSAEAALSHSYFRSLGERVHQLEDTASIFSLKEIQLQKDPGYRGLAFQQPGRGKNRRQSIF
UniProt Q9UK32, sequence (whole entry, looked up): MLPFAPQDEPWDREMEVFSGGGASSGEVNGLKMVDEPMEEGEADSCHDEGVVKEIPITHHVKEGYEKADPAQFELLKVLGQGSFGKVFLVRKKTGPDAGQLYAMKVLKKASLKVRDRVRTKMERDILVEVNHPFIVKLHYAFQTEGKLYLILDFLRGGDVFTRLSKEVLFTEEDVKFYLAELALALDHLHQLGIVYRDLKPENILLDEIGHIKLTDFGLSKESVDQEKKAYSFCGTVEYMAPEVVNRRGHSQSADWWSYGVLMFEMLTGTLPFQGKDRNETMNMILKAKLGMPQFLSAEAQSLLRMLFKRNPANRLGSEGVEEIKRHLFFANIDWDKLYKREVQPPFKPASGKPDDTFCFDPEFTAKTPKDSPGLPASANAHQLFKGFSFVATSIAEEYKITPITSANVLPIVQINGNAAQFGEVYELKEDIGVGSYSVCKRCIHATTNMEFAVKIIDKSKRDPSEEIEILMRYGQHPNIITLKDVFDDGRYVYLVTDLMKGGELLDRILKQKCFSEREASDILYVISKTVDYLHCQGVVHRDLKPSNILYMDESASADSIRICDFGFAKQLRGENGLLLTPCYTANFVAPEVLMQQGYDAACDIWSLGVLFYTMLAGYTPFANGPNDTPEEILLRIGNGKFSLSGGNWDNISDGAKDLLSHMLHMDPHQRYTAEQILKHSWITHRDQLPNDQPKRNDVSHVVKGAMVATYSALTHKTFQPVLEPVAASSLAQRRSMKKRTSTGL
UniProt Q9P289, sequence (whole entry, looked up): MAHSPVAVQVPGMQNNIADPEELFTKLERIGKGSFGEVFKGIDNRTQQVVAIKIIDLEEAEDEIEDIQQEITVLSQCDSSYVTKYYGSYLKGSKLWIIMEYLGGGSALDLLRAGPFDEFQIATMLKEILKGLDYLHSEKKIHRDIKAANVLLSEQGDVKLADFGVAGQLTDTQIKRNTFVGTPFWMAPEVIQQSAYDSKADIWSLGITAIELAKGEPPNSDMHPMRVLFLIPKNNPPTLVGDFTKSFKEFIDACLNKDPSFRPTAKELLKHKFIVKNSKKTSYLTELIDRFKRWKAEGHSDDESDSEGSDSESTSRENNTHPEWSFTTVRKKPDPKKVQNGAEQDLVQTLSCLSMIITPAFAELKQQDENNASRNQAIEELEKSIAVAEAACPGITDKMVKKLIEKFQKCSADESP

Series 1
Host: human
Matrix: microsomes or S9
Tested at: 2 µM
Time: 0.5 h
SMILES	remaining compound
O=C(NC1=C(C(=O)c2ccccc2)N(Cc2ccccc2)S(=O)(=O)c2ccccc21)c1ccccc1	3.76%
CCc1cccc(N2C(=O)Nc3ccccc3N2O)c1	64.3%
COc1ccc(C)cc1NC(=O)c1[nH]c(C)c(S(=O)(=O)N2CCCC2)c1C	0.999%
O=C(O)CCCN1C(=O)C2Cc3ccccc3CN2C1=O (centres unmarked)	18.2%
COc1ccnc(Cn2cnc(Cl)c2Cl)c1OC	73.7%

Series 2
Structure (SMILES): CCCOc1ccc([C@H]2[C@H](C(=O)O)[C@@H](c3ccc4c(c3)OCO4)CN2CC(=O)Nc2c(CC)cccc2CC)cc1
Observed: cell-free assay
Method: competition with immobilised ligand
Tested at: 1 µM
target	remaining binding [%]
CDK7 (Homo sapiens, UniProt P50613)	78
Ribosomal protein S6 kinase alpha-5, N-terminal kinase domain (RPS6KA5, Homo sapiens, UniProt O75582)	98
Ribosomal protein S6 kinase alpha-6, N-terminal kinase domain (RPS6KA6, Homo sapiens, UniProt Q9UK32)	78
EGFR (Homo sapiens, UniProt P00533, T790M)	82
EGFR (Homo sapiens, UniProt P00533, del746-750)	89
Tyrosine-protein kinase ABL1, non-phosphorylated (ABL1, Homo sapiens, UniProt P00519, T315I)	58
FLT3 (Homo sapiens, UniProt P36888, D835V)	88
CDKL2 (Homo sapiens, UniProt Q92772)	84
STK26 (Homo sapiens, UniProt Q9P289)	74
MAP2K5 (Homo sapiens, UniProt Q13163)	63
CHUK (Homo sapiens, UniProt O15111)	77
CDK18 (Homo sapiens, UniProt Q07002)	100
FGFR1 (Homo sapiens, UniProt P11362)	100

Series 3
Target: Beta-1 adrenergic receptor (ADRB1, Homo sapiens, UniProt P08588)
UniProt P08588, sequence (whole entry, looked up): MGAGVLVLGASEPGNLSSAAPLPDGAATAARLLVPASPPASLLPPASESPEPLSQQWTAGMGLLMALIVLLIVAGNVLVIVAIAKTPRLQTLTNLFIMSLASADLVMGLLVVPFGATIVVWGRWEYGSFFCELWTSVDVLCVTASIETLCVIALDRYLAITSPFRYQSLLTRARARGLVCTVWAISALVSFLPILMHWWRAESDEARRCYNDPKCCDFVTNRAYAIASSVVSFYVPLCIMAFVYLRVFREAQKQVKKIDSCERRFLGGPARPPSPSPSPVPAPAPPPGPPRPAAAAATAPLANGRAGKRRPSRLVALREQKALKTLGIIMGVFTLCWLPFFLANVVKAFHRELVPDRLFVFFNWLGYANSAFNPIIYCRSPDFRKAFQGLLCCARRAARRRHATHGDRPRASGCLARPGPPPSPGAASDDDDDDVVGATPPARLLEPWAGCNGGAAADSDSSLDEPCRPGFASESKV
Action: antagonist
Compound	IC50 [µM]
COc1ccccc1-c1nc(N2CCOCC2)cc2c1CN(Cc1cnn(C)c1)C2=O	≥ 100
CN(CCC(N)=O)Cc1ccccc1OCC(O)CN1CCc2ccccc2C1 (centres unmarked)	≥ 100
COc1ccccc1N1CCN([S+](=O)([O-])c2c(C)cc(C)cc2C)CC1	≥ 100
CC1(C)CC(=O)c2cc(C(=O)Nc3ccccc3)c(O)nc2C1	≥ 100
Cc1noc2c(-c3cccc(CO)c3)cc(-c3cccc(C(F)(F)F)c3)nc12	≥ 100
CN(C)c1cc(=O)c2ccnc(-c3ccc(O)c(F)c3)c2o1	≥ 100

Series 4
SMILES: CC1=C(/C=C/C(C)=C/C=C/C(C)=C/C(=O)O)C(C)(C)CCC1
Cell line: HuT78
Tested at: concentration not given
Notes: unit not given
Relative to: vehicle
test	mRNA level
qPCR, measured: LTA	1.38 and 1.68 and 1.44
qPCR, measured: IL4	0.364 and 0.232 and 0.362
qPCR, measured: TGFB1	0.747 and 0.601 and 0.707
measured: IL2RA	1.47 and 1.56 and 1.65
qPCR, measured: STAT4	2.22 and 2.69 and 2.08

For quick reference, copied from above (series 2):
target	remaining binding [%]
CDKL2 (Homo sapiens, UniProt Q92772)	84
STK26 (Homo sapiens, UniProt Q9P289)	74
